Measured values of several laboratories.
Protocols differ between the studies behind these lines.

COc1c(OCCCN2CCOCC2)ccc2c1N=C(NC(=O)c1cnc(N)nc1)N1CCN=C21 — patients with adverse event (item: Hypertension; patients with advanced malignancies; intravenous, dose not given, any grade, all cohorts, added: gemcitabine): 52%
N[C@@H]1c2ccccc2OC12CCN(c1cnc3c(N4CCCc5ncccc54)n[nH]c3n1)CC2 — patients with any TEAE (advanced solid tumour patients; oral, 20 mg once daily): 100%
CN1CC[C@@H](c2c(O)cc(O)c3c(=O)cc(-c4ccc(C(F)(F)F)cc4Cl)oc23)[C@@H]1CO — patients with adverse event (item: Anorexia; relapsed or refractory haematological malignancies; oral, dose not given, all arms): 17.5%
CC(=O)c1c(C)c2cnc(Nc3ccc(C4CCN(CCS(C)(=O)=O)CC4)cn3)nc2n(C2CCCC2)c1=O — patients with TRAE grade ≥3 (HR+/HER2- advanced breast cancer patients; oral, 25 mg): 0%
C=CCNc1c(O)cc2c(O)c1C[C@@H](C)C[C@H](OC)[C@H](O)[C@@H](C)/C=C(\C)[C@H](OC(N)=O)[C@@H](OC)/C=C\C=C(/C)C(=O)N2 — patients with fatigue TEAE (unresectable or metastatic STS, GIST, other; intravenous, 500 mg/m^2): 71%
Nc1nc2cc(-c3ccc4ncc(C(=O)N5CCOCC5)n4c3)ccc2o1 — patients with adverse events (item: Constipation, any cause, grade ≥3; patients with advanced solid tumours; dose not given): 0%
C[C@@H]1OC(=O)NN=C1c1ccc(-c2ccc(F)cc2)c(C(F)(F)F)c1 — patients with muscle spasms (patients, phase I trial; oral, 5 mg once daily, any grade TEAE): 0%
O=C1Nc2cc3[nH]nc(-c4ccncc4)c3cc2CN1Cc1ccccc1 — patients with grade ≥1 TEAE (patients with advanced solid tumours; intravenous, dose not given, both schedules pooled): 100%
CO[C@H]1C[C@@H]2CC[C@@H](C)[C@@](O)(O2)C(=O)C(=O)N2CCCC[C@H]2C(=O)O[C@H]([C@H](C)C[C@@H]2CC[C@@H](OC(=O)NCCOCCOCCOCCOCCOCCOCCOCCOCCC(=O)N3CCc4cc(Cn5nc(-c6ccc7oc(N)nc7c6)c6c(N)ncnc65)ccc4C3)[C@H](OC)C2)C[C@@H](O)[C@H](C)/C=C(\C)[C@@H](O)[C@@H](OC)C(=O)[C@H](C)C[C@H](C)/C=C/C=C/C=C/1C — patients with AE (item: mucositis TEAE, any grade; patients with advanced solid tumours; intravenous, dose not given, all patients, weekly): 58%
Cc1cc(OCCOCCC(F)(F)P(=O)(O)O)ccc1CCc1cnc2c(N)nc3cc(CCC(=O)O)ccc3c2c1 — patients with non-serious AE (item: fatigue; adults with advanced solid tumours; dose not given, all groups pooled, all grades): 11.1%
CCN(CCO)CCCC(C)Nc1ccnc2cc(Cl)ccc12 (centres unmarked) — patients with adverse event (item: Ataxia grade 1; newly diagnosed glioblastoma patients; oral, 200 mg/dose, with radiotherapy and temozolomide): 33%

Some of these lines once more:
COc1c(OCCCN2CCOCC2)ccc2c1N=C(NC(=O)c1cnc(N)nc1)N1CCN=C21 — patients with adverse event (item: Hypertension; patients with advanced malignancies; intravenous, dose not given, any grade, all cohorts, added: gemcitabine): 52%
CC(=O)c1c(C)c2cnc(Nc3ccc(C4CCN(CCS(C)(=O)=O)CC4)cn3)nc2n(C2CCCC2)c1=O — patients with TRAE grade ≥3 (HR+/HER2- advanced breast cancer patients; oral, 25 mg): 0%
